{"data": "Values quoted from earlier work that unrelated publications cite", "note": "Compare with care: the assays were run in different laboratories. ± marks the error that the study gave."}
{"SMILES": "COc1cc(NC(=O)CCN2CCC(OC(=O)Nc3ccccc3-c3ccccc3)CC2)c(Cl)cc1CNC[C@H](O)c1ccc(O)c2[nH]c(=O)ccc12", "test system": "human, plasma", "setting": "inhaled, dose not given", "Cmax": "0.14 nM"}
{"SMILES": "Cn1c(Cn2ccc(C(F)(F)F)c(Oc3cc(Cl)cc(C#N)c3)c2=O)n[nH]c1=O", "test system": "human, plasma total", "setting": "120 mg", "Cmax": "2710 nM"}
{"SMILES": "C=CC(=O)N1CCC([C@@H]2CCNc3c(C(N)=O)c(-c4ccc(Oc5ccccc5)cc4)nn32)CC1", "test system": "human patients", "setting": "oral, 320 mg once daily, day 8", "Cmax": "608 ± 244 ng/mL"}
{"SMILES": "COCCc1ccc(OCC(O)CNC(C)C)cc1 (stereo not shown)", "test system": "human fasted", "setting": "400 mg multiple doses, day 7, mean", "Cmax": "224 ng/mL"}
{"SMILES": "CCCc1nn(C)c2c(=O)[nH]c(-c3cc(S(=O)(=O)N4CCN(C)CC4)ccc3OCC)nc12", "test system": "humans", "setting": "oral, 100 mg, geometric mean, given alone", "Cmax": "321 ng/mL"}
{"SMILES": "C[C@@H]1C[C@H]2[C@@H]3CCC4=CC(=O)C=C[C@]4(C)[C@@]3(F)[C@@H](O)C[C@]2(C)[C@@]1(O)C(=O)CO", "test system": "human, plasma", "setting": "concentration not given", "Cmax": "160 nM"}
{"SMILES": "C[C@H]1O[C@@H](O[C@H]2[C@@H](O)C[C@H](O[C@H]3[C@@H](O)C[C@H](O[C@H]4CC[C@@]5(C)[C@H](CC[C@@H]6[C@@H]5C[C@@H](O)[C@]5(C)[C@@H](C7=CC(=O)OC7)CC[C@]65O)C4)O[C@@H]3C)O[C@@H]2C)C[C@H](O)[C@@H]1O", "test system": "human", "setting": "oral, dose not given", "Cmax": "1.67 ng/mL"}
{"SMILES": "C[C@H](Cn1cnc2c(N)ncnc21)OCP(=O)(O)O", "test system": "human, plasma", "setting": "oral, 300 mg tenofovir disoproxil fumarate, single dose, geometric mean", "Cmax": "263 ng/mL"}
{"SMILES": "O=C(c1cc(Cc2n[nH]c(=O)c3ccccc23)ccc1F)N1CCN(C(=O)C2CC2)CC1", "test system": "human", "setting": "oral, 100 mg tablet, single dose, with: itraconazole 0 mg", "Cmax": "3000 ng/mL"}
{"SMILES": "O=C(O)c1cc(O)c(O)c(O)c1", "test system": "human", "setting": "oral, 50 mg", "Cmax": "4000 nM"}
{"SMILES": "COc1ccc2[nH]c([S+]([O-])Cc3ncc(C)c(OC)c3C)nc2c1 (stereo not shown)", "test system": "human post-RYGB patients", "setting": "oral tablet, 20 mg once daily, day 6, 1 months after surgery", "Cmax": "462 ng/mL"}
{"SMILES": "Cc1ccc([C@@H]2O[C@H](CO)[C@@H](O)[C@H](O)[C@H]2O)cc1Cc1ccc(-c2ccc(F)cc2)s1", "test system": "human, preserved kidney function", "setting": "100 mg, steady state, mean", "Cmax": "1120 ng/mL"}
{"SMILES": "C[C@H]1CNC(=O)c2cnn3ccc(nc23)N[C@H](C)c2cc(F)ccc2O1", "test system": "human, plasma", "setting": "dose not given", "Cmax": "390 nM"}
{"SMILES": "CN(C)C/C=C/C(=O)Nc1cc2c(Nc3ccc(F)c(Cl)c3)ncnc2cc1O[C@H]1CCOC1", "test system": "human, plasma", "setting": "concentration not given", "Cmax": "78 nM"}
{"SMILES": "CC(C)(C)c1ccc(S(=O)(=O)Nc2ccc(Cl)cc2C(=O)c2cc[n+]([O-])cc2)cc1", "test system": "human", "setting": "dose not given", "Cmax": "2200 nM"}
{"SMILES": "CC(C)(C)NCC(O)c1cc(O)cc(O)c1 (stereo not shown)", "test system": "human, plasma", "setting": "inhaled, dose not given", "Cmax": "12 nM"}
{"SMILES": "CCN1CCN(Cc2ccc(Nc3ncc(F)c(-c4cc(F)c5nc(C)n(C(C)C)c5c4)n3)nc2)CC1", "test system": "human", "setting": "150 mg single dose, tablet", "Cmax": "167 ng/mL"}
{"SMILES": "COc1c2occc2cc2ccc(=O)oc12", "test system": "human, plasma", "setting": "concentration not given", "Cmax": "1500 nM"}
{"SMILES": "CCCCc1oc2ccc(NS(C)(=O)=O)cc2c1C(=O)c1ccc(OCCCN(CCCC)CCCC)cc1", "test system": "human, plasma", "setting": "800 mg single dose", "Cmax": "290 nM"}
{"SMILES": "OC(Cn1cncn1)(Cn1cncn1)c1ccc(F)cc1F", "test system": "human", "setting": "oral, 50 mg single dose", "Cmax": "1130 ng/mL"}
{"SMILES": "CCc1nn(CCO)c(CC)c1Oc1cc(C#N)cc(C#N)c1", "test system": "human, plasma total", "setting": "400 mg", "Cmax": "2960 nM"}
{"SMILES": "Cc1cc(C)c(CNC(=O)c2cc(Cl)c3c(c2C)O[C@@](C)([C@H]2CC[C@H](N(C)C)CC2)O3)c(=O)[nH]1", "test system": "human, plasma", "setting": "oral, 100 mg single dose, study, geometric mean", "Cmax": "570 ng/mL"}
{"SMILES": "C[C@H]1CO[C@@H]2Cn3cc(C(=O)NCc4ccc(F)cc4F)c(=O)c(O)c3C(=O)N12", "test system": "human", "setting": "oral solution, 10 mg, geometric mean", "Cmax": "1930 ng/mL"}
{"SMILES": "CO[C@@H](C)Cn1c(=O)n(C)c2cnc3ccc(-c4cncc(C(C)(C)O)c4)cc3c21", "test system": "human", "setting": "single 200 mg dose, monotherapy, geometric mean", "Cmax": "828 ng/mL"}
{"SMILES": "C#C[C@]1(O)CC[C@H]2[C@@H]3CCC4=CC(=NO)CC[C@@H]4[C@H]3CC[C@@]21CC (mixture of isomers)", "test system": "human fasted", "setting": "0.215 mg, after 7 days, with: norgestimate", "Cmax": "2.12 ng/mL"}
{"SMILES": "COc1cccc2c1C(=O)c1c(O)c3c(c(O)c1C2=O)C[C@@](O)(C(=O)CO)C[C@@H]3O[C@H]1C[C@H](N)[C@H](O)[C@H](C)O1", "test system": "human, plasma", "setting": "intravenous infusion, 9 mg/m2/day, 96 h infusion", "Cmax": "29 ± 8 nM"}
{"SMILES": "COc1ccccc1OCC(O)CN1CCN(CC(=O)Nc2c(C)cccc2C)CC1 (stereo not shown)", "test system": "human, plasma", "setting": "concentration not given, total plasma concentration", "Cmax": "14000 nM"}
{"SMILES": "NC(N)=Nc1nc(CSCCC(N)=NS(N)(=O)=O)cs1", "test system": "human", "setting": "concentration not given", "Cmax": "20 to 300 nM"}
{"SMILES": "O=C(c1cc(Cc2n[nH]c(=O)c3ccccc23)ccc1F)N1CCN(C(=O)C2CC2)CC1", "test system": "human", "setting": "300 mg tablet", "how to read": "relative to: 400 mg capsule", "Cmax": "increased"}
{"SMILES": "Cc1cc(CCCOc2c(C)cc(-c3noc(C(F)(F)F)n3)cc2C)on1", "test system": "human, plasma total", "setting": "400 mg", "Cmax": "2750 nM"}
{"SMILES": "CC(C)[C@H](C(=O)Nc1ccc(C(=O)NO)cc1)c1ccccc1", "test system": "human subjects", "setting": "oral, 20 mg", "Cmax": "383 nM"}
{"SMILES": "COc1cc2c(Oc3ccc4[nH]c(C)cc4c3F)ccnc2cc1OCC1(N)CC1", "test system": "human", "setting": "12 mg single dose", "Cmax": "10.5 ± 2.9 ng/mL"}
{"SMILES": "O=c1ccc2ccc(OCCCCN3CCN(c4cccc5sccc45)CC3)cc2[nH]1", "test system": "human", "setting": "dose not given", "Cmax": "160 nM"}
{"SMILES": "C[C@@H](Oc1ccc(S(C)(=O)=O)cc1C(=O)N1C[C@@H]2C[C@]2(c2cc(C(F)(F)F)on2)C1)C(F)(F)F", "test system": "human", "setting": "oral, 25 mg, tablet, fasted, single dose", "Cmax": "218 nM"}
{"SMILES": "COc1ccccc1Oc1c(NS(=O)(=O)c2ccc(C(C)(C)C)cc2)nc(-c2ncccn2)nc1OCCO", "test system": "human", "setting": "62.5 mg, 28 days", "Cmax": "1400 nM"}
{"SMILES": "C#Cc1cccc(Nc2ncnc3cc(OCCOC)c(OCCOC)cc23)c1", "test system": "human", "setting": "intravenous, 150 mg", "Cmax": "1960 ng/mL"}
{"SMILES": "CC(=O)Oc1cccc2c1C(=O)c1c(OC(C)=O)cc(C(=O)O)cc1C2=O", "test system": "human, plasma", "setting": "concentration not given", "Cmax": "13000 nM"}
{"SMILES": "O=C(c1cccnc1-c1ccncc1)N1CCC(O)(Cc2ccccc2)CC1", "test system": "human adults, mild hepatic impairment, plasma", "setting": "300 mg single dose", "Cmax": "1440 ng/mL"}
{"SMILES": "CNCc1cc(-c2ccccc2F)n(S(=O)(=O)c2cccnc2)c1", "test system": "human, plasma", "setting": "20 mg single dose, observed clinical data", "Cmax": "23 ng/mL"}
{"SMILES": "CC(C)(C)NCC(O)COc1cccc2c1CC(O)C(O)C2 (stereo not shown)", "test system": "human, plasma", "setting": "concentration not given", "Cmax": "430 nM"}
{"SMILES": "O=C(c1cc(Cc2n[nH]c(=O)c3ccccc23)ccc1F)N1CCN(C(=O)C2CC2)CC1", "test system": "human", "setting": "oral tablet, 100 mg twice daily, multiple dose", "Cmax": "3750 ng/mL"}
{"SMILES": "FC(F)(F)c1ccc(CNc2ccc(Cc3c[nH]c4ncc(Cl)cc34)cn2)cn1", "test system": "human", "setting": "1000 mg/day, day 15", "Cmax": "8820 ng/mL"}
{"SMILES": "CNC(=O)c1cc(Oc2ccc(NC(=O)Nc3ccc(Cl)c(C(F)(F)F)c3)cc2)ccn1", "test system": "human, plasma", "setting": "concentration not given", "Cmax": "6200 nM"}
{"SMILES": "Cc1nsc(-c2nnc3n2CCN(C(=O)c2ccc(F)cc2)[C@@H]3C)n1", "test system": "human", "setting": "oral, 30 mg single dose, non-smoker", "Cmax": "282 ng/mL"}
{"SMILES": "CO[C@H]1/C=C/O[C@@]2(C)Oc3c(C)c(O)c4c(O)c(c(/C=N/N5CCN(C)CC5)c(O)c4c3C2=O)NC(=O)/C(C)=C\\C=C\\[C@H](C)[C@H](O)[C@@H](C)[C@@H](O)[C@@H](C)[C@H](OC(C)=O)[C@@H]1C", "test system": "human, plasma total", "setting": "600 mg", "Cmax": "9800 nM"}
{"SMILES": "COc1cc2nccc(Oc3ccc(NC(=O)C4(C(=O)Nc5ccc(F)cc5)CC4)cc3)c2cc1OC", "test system": "human, plasma", "setting": "dose not given", "Cmax": "1080 nM"}
{"note": "For quick reference, copied from above:"}
{"SMILES": "CC(C)(C)c1ccc(S(=O)(=O)Nc2ccc(Cl)cc2C(=O)c2cc[n+]([O-])cc2)cc1", "test system": "human", "setting": "dose not given", "Cmax": "2200 nM"}
{"SMILES": "CC(C)(C)NCC(O)c1cc(O)cc(O)c1 (stereo not shown)", "test system": "human, plasma", "setting": "inhaled, dose not given", "Cmax": "12 nM"}
{"SMILES": "CCN1CCN(Cc2ccc(Nc3ncc(F)c(-c4cc(F)c5nc(C)n(C(C)C)c5c4)n3)nc2)CC1", "test system": "human", "setting": "150 mg single dose, tablet", "Cmax": "167 ng/mL"}
{"SMILES": "COc1c2occc2cc2ccc(=O)oc12", "test system": "human, plasma", "setting": "concentration not given", "Cmax": "1500 nM"}
{"SMILES": "CCCCc1oc2ccc(NS(C)(=O)=O)cc2c1C(=O)c1ccc(OCCCN(CCCC)CCCC)cc1", "test system": "human, plasma", "setting": "800 mg single dose", "Cmax": "290 nM"}
{"SMILES": "OC(Cn1cncn1)(Cn1cncn1)c1ccc(F)cc1F", "test system": "human", "setting": "oral, 50 mg single dose", "Cmax": "1130 ng/mL"}
{"SMILES": "CCc1nn(CCO)c(CC)c1Oc1cc(C#N)cc(C#N)c1", "test system": "human, plasma total", "setting": "400 mg", "Cmax": "2960 nM"}
{"SMILES": "Cc1cc(C)c(CNC(=O)c2cc(Cl)c3c(c2C)O[C@@](C)([C@H]2CC[C@H](N(C)C)CC2)O3)c(=O)[nH]1", "test system": "human, plasma", "setting": "oral, 100 mg single dose, study, geometric mean", "Cmax": "570 ng/mL"}
